Measurements collected from several papers.
Compare with care: the assays were run in different laboratories.
Organism: Bacillus subtilis

Compound | assay | system | conditions | MIC
C#CCNC(=O)[C@H]1NC(=O)[C@H]2NC(=O)[C@H](NC(=O)[C@@H]3NC(=O)[C@H](CC(N)=O)NC(=O)[C@H](NC(=O)[C@@H](CC(C)C)NC)[C@H](O)c4ccc(c(Cl)c4)Oc4cc3cc(c4O[C@@H]3O[C@H](CO)[C@@H](O)[C@H](O)[C@H]3O[C@H]3C[C@](C)(N)[C@H](O)[C@H](C)O3)Oc3ccc(cc3Cl)[C@H]2O)c2ccc(O)c(c2)-c2c(O)cc(O)cc21 | broth microdilution | 168, cation-adjusted Mueller-Hinton broth | – | 0.084 µM
C=C1NC(=O)C2CSCC3NC(=O)C(CSC(C)C(NC(=S)C(Cc4cnc[nH]4)NC(=O)c4csc(C(C)NC(C)=O)n4)C(=O)N[C@H](CC(C)C(=O)NC(=O)CC(C(=O)O)NC(=O)C(C)NC3=O)C(=O)N2)NC(=O)[C@@H]2CCCN2C(=O)[C@@H](CC(C)C)NC1=O (some centres unmarked) | bacterial growth | 168 | – | > 32 µg/mL
O=c1n(CCNCCOS(=O)(=O)c2ccccc2)c(=O)n(S(=O)(=O)c2ccccc2)c(=O)n1S(=O)(=O)c1ccccc1 | microbial growth, broth dilution | – | – | 2 µg/mL
CC(=O)N[C@@H](CC(C)C)C(=O)N[C@H]1CSSC[C@@H](C(=O)N2CCC[C@H]2C(N)=O)NC(=O)[C@H]([C@@H](C)O)NC(=O)[C@H](C(C)C)NC(=O)[C@H]([C@@H](C)O)NC(=O)CNC(=O)[C@H](CC(C)C)NC(=O)[C@H](Cc2ccccc2)NC(=O)[C@H](Cc2ccc(O)cc2)NC(=O)[C@H](CC(C)C)NC(=O)[C@H](CCCCN)NC(=O)[C@H](Cc2ccccc2)NC(=O)[C@H](CCCNC(=N)N)NC(=O)[C@H](CCC(N)=O)NC(=O)[C@H](CC(C)C)NC(=O)[C@H](CCCCN)NC(=O)[C@@H]2CCCN2C(=O)[C@H](CCCCN)NC(=O)[C@H](C(C)C)NC(=O)[C@H](CC(N)=O)NC(=O)[C@H](Cc2ccc(O)cc2)NC(=O)[C@H]([C@@H](C)O)NC1=O | broth dilution | CGMCC strain | 24 h | 2.5 to 5 µM
CC(C)C[C@H](NC(=O)[C@H](CCCCN)NC(=O)[C@H](C)NC(=O)[C@H](CC(C)C)NC(=O)[C@H](CCCCN)NC(=O)[C@H](CCC(N)=O)NC(=O)[C@H](CCCCN)NC(=O)[C@H](CC(C)C)NC(=O)[C@H](CCCCN)NC(=O)[C@H](CCC(N)=O)NC(=O)[C@H](CC(C)C)NC(=O)[C@H](CCCCN)NC(=O)[C@H](C)NC(=O)[C@H](CCCCN)NC(=O)[C@H](CC(C)C)NC(=O)[C@H](CCCCN)NC(=O)[C@H](C)NC(=O)[C@H](CC(C)C)NC(=O)[C@H](CCCCN)NC(=O)[C@H](CCC(N)=O)NC(=O)[C@@H](N)CCCCN)C(N)=O | broth microdilution | ATCC 6633 | 24 h | 6.2 µM
CC[C@H](C)[C@H](NC(=O)[C@H](Cc1c[nH]c2ccccc12)NC(=O)[C@H](Cc1ccc(O)cc1)NC(=O)[C@H](CCCCN)NC(=O)[C@H](CC(C)C)NC(=O)[C@H](CO)NC(=O)[C@@H](N)Cc1ccccc1)C(=O)N[C@@H](CCCNC(=N)N)C(=O)N[C@@H](Cc1ccc(O)cc1)C(=O)N[C@@H](CCCCN)C(=O)N[C@@H](CCCNC(=N)N)C(=O)N[C@@H](CCC(N)=O)C(=O)NCC(=O)N[C@@H](C)C(=O)N[C@@H](C)C(=O)N[C@@H](CCCNC(=N)N)C(=O)N[C@@H](Cc1ccccc1)C(N)=O | broth dilution | KCTC 3068 | – | 6.3 µM
CC[C@H](C)[C@H](N)C(=O)N[C@H](C)C(=O)N[C@@H](CC(C)C)C(=O)N[C@H](CCC(=O)O)C(=O)N[C@H](C(=O)N[C@H]1CCCCNC(=O)[C@H](CC(N)=O)NC(=O)[C@@H](CC(=O)O)NC(=O)[C@H](Cc2c[nH]cn2)NC(=O)[C@@H](Cc2ccccc2)NC(=O)[C@H]([C@@H](C)CC)NC(=O)[C@@H](CCCN)NC1=O)[C@@H](C)CC | – | 168 | 18 h, 37 °C, 0.3 mM ZnSO4 LB | > 64 µg/mL
C#CCOc1ccc(CN[C@@]2(C)C[C@H](O[C@H]3[C@H](Oc4c5cc6cc4Oc4ccc(cc4Cl)[C@@H](O)[C@@H](NC(=O)[C@@H](CC(C)C)NC)C(=O)N[C@@H](CC(N)=O)C(=O)N[C@H]6C(=O)N[C@H]4C(=O)N[C@H](C(=O)N[C@H](C(=O)NCC(N)=O)c6cc(O)cc(O)c6-c6cc4ccc6O)[C@H](O)c4ccc(c(Cl)c4)O5)O[C@H](CO)[C@@H](O)[C@@H]3O)O[C@@H](C)[C@H]2O)cc1OC | broth microdilution | 168, cation-adjusted Mueller-Hinton broth | – | 0.074 µM

For quick reference, copied from above:
Compound | assay | system | conditions | MIC
CC[C@H](C)[C@H](N)C(=O)N[C@H](C)C(=O)N[C@@H](CC(C)C)C(=O)N[C@H](CCC(=O)O)C(=O)N[C@H](C(=O)N[C@H]1CCCCNC(=O)[C@H](CC(N)=O)NC(=O)[C@@H](CC(=O)O)NC(=O)[C@H](Cc2c[nH]cn2)NC(=O)[C@@H](Cc2ccccc2)NC(=O)[C@H]([C@@H](C)CC)NC(=O)[C@@H](CCCN)NC1=O)[C@@H](C)CC | – | 168 | 18 h, 37 °C, 0.3 mM ZnSO4 LB | > 64 µg/mL
